Assay results gathered from unrelated publications.
Parts stem from different laboratories: compare values within a part only.

Sample 1
Cell line: HEK-293T/ACE2
Tested at: concentration not given
Time: 16 (unit not given)
Baseline: vehicle
Measurement: viability
SMILES = Clc1ccc(C(Cn2ccnc2)OCc2csc3c(Cl)cccc23)c(Cl)c1 (stereo not drawn); value = 96.7%
SMILES = CN1C(=O)OC(C)(C)C1=O; value = 94.8%
SMILES = COc1cc2nc(N3CCN(C(=O)C4COc5ccccc5O4)CC3)nc(N)c2cc1OC (stereo not drawn); value = 93.7%
SMILES = COc1ccc(CN=c2[nH]c(N3CCC[C@H]3CO)ncc2C(=O)NCc2ncccn2)cc1Cl; value = 101%

Sample 2
Target: Protein max, full length (MAX, Homo sapiens, UniProt P61244-2, residues 1-151)
Technique: protein-binding microarray
Molecule type: double-stranded DNA, one strand shown
Matrix: in vitro
Tested at: not given
Setting: k-mer, scored over probes, only values ≥0.25
Reading: higher = stronger binding
Measurement: E-score
Oligonucleotide = AGTGCATG; value = 0.308
Oligonucleotide = AGGGGCAT; value = 0.257
Oligonucleotide = CCTCCCCA; value = 0.364
Oligonucleotide = GTGCTTCA; value = 0.279
Oligonucleotide = GCATGAGA; value = 0.301

Sample 3
Target: Fragile X messenger ribonucleoprotein 1, C-terminal low-complexity region (Fmr1, Mus musculus, UniProt P35922)
Technique: RNA Bind-n-Seq
Molecule type: RNA
Matrix: in vitro
Tested at: 200 nM
Setting: whole 134-nt RNA, ends assumed
Added: 150 mM KCl
Baseline: input library
Reading: higher = stronger binding
Measurement: log2 enrichment
Constant ends, left off below: GGGAGUUCUACAGUCCGACGAUC … UGGAAUUCUCGGGUGUCAAGG
Oligonucleotide = UUUUGAGGAAAGGAUGAAGGAGCUCAGAGAAGAGGUAAGGGUCUCCUAUCCUUCCCCUCUCCCCCAGAUUUGAGUUUUAUGUUAUGAAUC; value = -0.531
Oligonucleotide = ACCAUGCAGGUGGGCAUCUUUGGGAAGUGGGGCAAGGGGGGGAUAGGGAGGGGGGUAACACUAAAGGAACAGGUGGUCCCAGGUCGUUUC; value = 0.777
Oligonucleotide = CAAGUCCUGUGCUACACAUCGUAUGUACCGAAUCGGGUUUUUGGGUUUGGGUGGGAAAGUAUUAUGUUACGCCGUUCGGAUCUGCACUUC; value = 1.2
Oligonucleotide = CUCAAGUCCUGUGCUACACAUCGUAUGUACCGAAUCGGGGAAGGAAGGAAGGGAAAGUAUUAUGUUACGCCGUUCGGAUCUGCACUUCCA; value = -0.112
Oligonucleotide = CACAGACAACACGCAGCCACACAGACACAGAGGGAAGGGGUUGGGAUGGGGACAGGGUGCACAGCAGGGCGGGGUAGGACCCCAGCCCCU; value = 1.3
Oligonucleotide = UGGGAGGUGAAUUUUGUUUAUUUUUUUAGCUCAUUUCCAGGGGUGGGAAUUUUUUUUUAAUAUGUGUCAUGAAUAAAGUUGUUUUUGAAA; value = 0.143

Sample 4
Target: RNA binding protein fox-1 homolog 2, RRM domain, GST-SBP tag (RBFOX2, Homo sapiens, UniProt O43251-10, residues 100-194)
Technique: RNA Bind-n-Seq
Molecule type: RNA
Matrix: in vitro
Tested at: 365 nM
Setting: natural RNA segment, single round, ends assumed
Baseline: no-protein control
Reading: higher = stronger binding
Measurement: RBNS enrichment (R)
Constant ends, left off below: GGGAGUUCUACAGUCCGACGAUC … UGGAAUUCUCGGGUGCCAA
Target sequence (chain): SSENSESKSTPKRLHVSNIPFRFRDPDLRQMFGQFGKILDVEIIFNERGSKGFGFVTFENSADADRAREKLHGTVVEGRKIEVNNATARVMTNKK
Oligonucleotide = AGCAUCAGGUGUAGGAGGCCUUGAGUCUGUGAGACCCCCGGGGCCAGCACCAAGACUCACGGAAAGACUAGACUGUGUGGGUAUCUGAAACAAAGCCCACAGGAUACGCC; value = 0.644
Oligonucleotide = UCUCUUAAUGUUGCCAAUAGAAGGCUUGAGCAGGAAGCUUGUAGCACUGAUCUAAUUGUGUGUACAACCAUCAACUUAAAUUUAUAAAAUGGCCUUUUUCUUGGCGUCUA; value = 0.32
Oligonucleotide = UUCCCUUUGGCUCCUGGAAGGCAGGAGGGUCCCCUGCCCUGCCCCAGUCCUGCCCCAGGGAGGCAGGGGGUGGGGGGCCUUCCUUUCCUCCUGGGCACCCCGUGUGCUGU; value = 0.502
Oligonucleotide = UUUAUUUGUAUAAAAAUACUCAUCUUUUCAGACUUUUUUGUAAACCCCCAGUUGUGAAAACUGCAGUUUAGCAGUGACCUCAGCAACCCCUCCUUUUUAUUUUUUCCUUU; value = 0.47
Oligonucleotide = GUGGCCCAUAACUUGAAGGAAAAGUUUAAAGACAGUUCAAUUUAAUCAUCAGAAUGCAUUCUUUUUUUUUUCGGAGACGGAGUUUCACUCUUGCUGCCCAGGCUGGAGUG; value = 0.474
Oligonucleotide = UCUCUGCUGCAAGUGGACAAGAGUAUUUCAGAGAUCACUGAAGCCUGAGUCCAUGCACCUGCCCCAGGAGGGGGCCAUUGUCCUAGGGACCGCCUAUCACGCCGACUGCU; value = 0.486
Oligonucleotide = ACACAAAGUACUUGAUUUCCUGUGUCGGCUCAGAUACAAGAAACACACACAACUGUUACCCUGACAGAGAACAGAGAGAGAAGAUCCAAGAUAAGAAAACUGCAUGUGGA; value = 15
Oligonucleotide = UGUAACAUUGGCCUUUUCAUGGCUCCACACUGGGUGGAACCAUAUUCUCUUAGAUCACAUUUAGUAGCAUAACUGUAGGGACUAUUAGAGAUGGCAUCUCAUCGAUGAGA; value = 0.433

Sample 5
Target: Replicase polyprotein 1ab, polymerase (rep, Severe acute respiratory syndrome coronavirus 2, UniProt P0DTD1)
Effect on: enzyme activity
Mode: inhibitor
Tested at: 20 µM
Measurement: inhibition
Compound = CC(CCc1ccccc1)NCC(O)c1ccc(O)c(C(N)=O)c1 (stereo not drawn); value = -1.32%
Compound = CC[C@H](c1ccc(O)cc1)[C@@H](CC)c1ccc(O)cc1; value = -0.93%
Compound = COc1cccc(C(=O)CCN[C@@H](C)[C@H](O)c2ccccc2)c1; value = 1.08%
Compound = O=C(O)C1CN(Cc2ccc(-c3nc4cc(Cc5ccccc5F)ccc4s3)c(F)c2)C1; value = -7.04%
Compound = CCCCCCCCCCCCCC(=O)OC(C)C; value = 1.25%
Compound = CN(C)[C@@H]1C(O)=C(C(N)=O)C(=O)[C@@]2(O)C(O)=C3C(=O)c4c(O)cccc4[C@@](C)(O)[C@H]3C[C@@H]12; value = 25.2%
Compound = CCN(CC)CCCCC1CCN(CC(=O)N2c3ccccc3C(=O)Nc3cccnc32)CC1; value = -2.69%
Compound = CCCN1CCN(c2ccc(C(=O)NC3(C(=O)NCC#N)CCCCC3)cc2)CC1; value = 2.09%
Compound = CC(=O)OCC(=O)[C@H]1CC[C@H]2[C@@H]3CC[C@H]4C[C@H](O)CC[C@]4(C)[C@H]3C(=O)C[C@]12C; value = -0.93%
Compound = C[C@H](Cn1cnc2c(N)ncnc21)OCP(=O)(O)O; value = 16.9%
Compound = COc1cc([C@@H]2c3cc4c(cc3[C@@H](O[C@@H]3O[C@@H]5CO[C@@H](c6cccs6)O[C@H]5[C@H](O)[C@H]3O)[C@H]3COC(=O)[C@H]23)OCO4)cc(OC)c1O; value = 4.77%
Compound = CC(=O)OCC(=O)[C@@]1(O)CC[C@H]2[C@@H]3CCC4=CC(=O)C=C[C@]4(C)[C@H]3[C@@H](O)C[C@@]21C; value = 18.2%
Compound = CCCCCN(C)CCC(O)(P(=O)(O)O)P(=O)(O)O; value = -10.5%
Compound = CC(C)(C)c1cc(/C=C(\C#N)C(N)=S)cc(C(C)(C)C)c1O; value = 3.78%
Compound = COC[C@@H](c1ccc(C(F)(F)F)cc1)N1CCN(C2(C)CCN(C(=O)c3c(C)ncnc3C)CC2)C[C@@H]1C; value = -0.75%
Compound = COc1c2ccoc2cc2oc(=O)ccc12; value = -3.19%
Compound = CCC(C/C=C/c1ccccc1)(c1ccccc1)N(C)CC1CC1 (stereo not drawn); value = -1.29%
Compound = O=C(O)c1ccc(Nc2ncc3c(n2)-c2ccc(Cl)cc2C(c2c(F)cccc2F)=NC3)cc1; value = 4.8%
Compound = C#C[C@]1(O)CC[C@H]2[C@@H]3CCC4=CC(=O)CCC4=C3C=C[C@@]21CC; value = 4.62%
Compound = CCCCC(=O)O[C@H]1CC[C@H]2[C@@H]3CCc4cc(O)ccc4[C@H]3CC[C@]12C; value = 7.44%
Compound = Cc1ccc2c(-c3ccccc3)nc(=O)n(C(C)C)c2c1; value = -4.26%
Compound = CC(=O)Nc1c(I)cc(I)c(C(=O)O)c1I; value = -10.4%
Compound = Cc1cc(C(=O)Nc2cccc(C(=O)Nc3cccc(C(F)(F)F)c3)c2)on1; value = -0.55%
Compound = CC(C)CN(C[C@@H](O)[C@H](Cc1ccccc1)NC(=O)O[C@H]1CO[C@H]2OCC[C@H]21)S(=O)(=O)c1ccc(N)cc1; value = -1.84%
Compound = COc1ccc(-c2nc(-c3ccc(-c4cccc(Cl)c4)o3)[nH]c2-c2ccc(OC)cc2)cc1; value = -5.21%

Sample 6
Target: Replicase polyprotein 1ab, main protease (rep, Severe acute respiratory syndrome coronavirus 2, UniProt P0DTD1)
Effect on: enzyme activity
Mode: inhibitor
Setting: with DTT
Measurement: IC50
SMILES = O=C1OC2(c3cc(I)c(O)c(I)c3Oc3c2cc(I)c(O)c3I)c2c(Cl)c(Cl)c(Cl)c(Cl)c21; value = 8 µM
SMILES = C[n+]1c2cc(N)ccc2cc2ccc(N)cc21.Nc1ccc2cc3ccc(N)cc3nc2c1; value = > 20 µM
SMILES = CCN(CC)C(=S)S; value = > 20 µM
